Experimental data collected from several papers.
Lines come from different studies, so protocols differ. “And” joins repeats or separate records; there may be more than shown. Numbers after ± are the reported error.
ABL1: Tyrosine-protein kinase ABL1 (ABL1, Homo sapiens, UniProt P00519)

Structure (SMILES) = Cc1nc(Nc2ncc(C(=O)Nc3c(C)cccc3Cl)s2)cc(N2CCN(CCNC(=O)c3ccc(C(=O)c4ccc(OCC(=O)NCCOCCOCCCCCCCl)cc4)cc3)CC2)n1; target = ABL1; measurement = IC50; value = < 4 nM
Structure (SMILES) = Cc1nn(-c2cccc(N)c2)c(=O)c2cnc(Nc3ccc(N4CCNCC4)cc3)nc12; target = ABL1; test = enzyme activity, inhibitor; measurement = IC50; value = 720 nM
Structure (SMILES) = C=CC(=O)Oc1ccc(OC)c(-c2c[nH]c3ncc(-c4cncc(C(=O)N(C)C)c4)cc23)c1; target = ABL1; test = kinase activity, inhibitor, HTRF; setting = 1 h preincubation, with: ATP 20 µM; measurement = IC50; value = 15.3 nM and 15 nM
Structure (SMILES) = COCC1CN(C2CCN(c3cc(OC)c(Nc4ncc(Br)c(Nc5ccc6c(c5P(C)(C)=O)OCCO6)n4)cc3C)CC2)C1; target = ABL1; test = enzyme activity, inhibitor; measurement = IC50; value = 86 nM
Structure (SMILES) = COc1ccc(OC(C)=O)cc1-c1c[nH]c2ncc(-c3cncc(C(=O)N(C)C)c3)cc12; target = ABL1; test = kinase activity, inhibitor, HTRF; setting = 1 h preincubation, with: ATP 20 µM; measurement = IC50; value = 5.5 ± 0.6 nM
Structure (SMILES) = CCN(CC)CC(=O)Nc1cccc(-n2cc(-c3ccc4ccc(-c5cn(-c6cccc(NC(=O)CN(CC)CC)c6)nn5)cc4c3)nn2)c1; target = Tyrosine-protein kinase ABL1, non-phosphorylated (ABL1, Homo sapiens, UniProt P00519); test = enzyme activity, inhibitor; measurement = IC50; value = > 10000 nM
Structure (SMILES) = C=CS(=O)(=O)Oc1ccc(OC)c(-c2c[nH]c3ncc(-c4cncc(C(=O)N(C)C)c4)cc23)c1; target = ABL1; test = kinase activity, inhibitor, HTRF; setting = 1 h preincubation, with: ATP 20 µM; measurement = IC50; value = 43.1 ± 4.6 nM
Structure (SMILES) = CN1CC[C@@H](COc2cnc(C#N)cc2-c2ccn3nc(NC(=O)C4CC4)cc3c2)C1; target = ABL1; measurement = Ki; value = 225 nM
Structure (SMILES) = Cc1nc(NCCOCCOCCNc2ncc(C(=O)NC3=NN(c4ccc(Cl)c(Cl)c4)CC3)c(C)n2)ncc1C(=O)NC1=NN(c2ccc(Cl)c(Cl)c2)CC1; target = Tyrosine-protein kinase ABL1, myristoyl pocket (ABL1, Homo sapiens, UniProt P00519); measurement = Kd; value = 47 nM

A few entries again:
Structure (SMILES) = C=CS(=O)(=O)Oc1ccc(OC)c(-c2c[nH]c3ncc(-c4cncc(C(=O)N(C)C)c4)cc23)c1; target = ABL1; test = kinase activity, inhibitor, HTRF; setting = 1 h preincubation, with: ATP 20 µM; measurement = IC50; value = 43.1 ± 4.6 nM
